{"data": "Results from different studies", "note": "Protocols differ between the studies behind these lines."}
{"Compound": "Cc1nc(-c2ccc(OCC(C)C)c(C#N)c2)sc1C(=O)O", "test system": "human, plasma", "conditions": "oral, 40 mg once daily, with: verinurad 5 mg", "half-life": "6.35 h"}
{"Compound": "CC1(COc2ccc3c(c2)ncn3-c2ccc3cccc(N4CCC(N)CC4)c3n2)COC1", "test system": "human patients, recurrent/progressive HGG or DIPG, serum", "conditions": "oral, 100 mg/m^2, day 1, median", "half-life": "9.7 h"}
{"Compound": "C[C@H](Oc1ccc(Br)cc1-c1ccon1)C(=O)O", "test system": "healthy male humans, plasma", "conditions": "oral, 400 mg twice daily, day 10", "half-life": "5.1 h"}
{"Compound": "O=C(COc1ccc(Cl)cc1)NC12CC(c3nnc([C@H]4C[C@@H](OC(F)(F)F)C4)o3)(C1)C2", "test system": "healthy human volunteers fasted, plasma", "conditions": "oral, 100 mg single dose, geometric mean", "half-life": "37.8 h"}
{"Compound": "O=C(O)CCC(=O)O.[2H]C([2H])([2H])Oc1cc(C)c2[nH]ccc2c1CN1CC[C@@H](C2CC2)C[C@H]1c1ccc(C(=O)O)cc1", "test system": "human, plasma", "conditions": "200 mg once daily, day 10, multiple ascending dose, mean", "half-life": "24.9 h"}
{"Compound": "C=CC(=O)N(C)CCOc1c(N)ncnc1-c1cc(F)cc(NC(=O)c2ccc(C3CC3)cc2F)c1C", "test system": "human, whole blood", "conditions": "oral, 15 mg, single ascending dose, median", "half-life": "0.56 h"}
{"Compound": "CC(C)(Sc1ccncc1-c1ccc(C#N)c2ccccc12)C(=O)O", "test system": "human, plasma", "conditions": "oral, 2.5 mg once daily, geometric mean, with: febuxostat 0 mg", "half-life": "15.9 h"}
{"Compound": "CO[C@H]1C[C@@H]2CC[C@@H](C)[C@@](O)(O2)C(=O)C(=O)N2CCCC[C@H]2C(=O)O[C@H]([C@H](C)C[C@@H]2CC[C@@H](OC(=O)NCCOCCOCCOCCOCCOCCOCCOCCOCCC(=O)N3CCc4cc(Cn5nc(-c6ccc7oc(N)nc7c6)c6c(N)ncnc65)ccc4C3)[C@H](OC)C2)C[C@@H](O)[C@H](C)/C=C(\\C)[C@@H](O)[C@@H](OC)C(=O)[C@H](C)C[C@H](C)/C=C/C=C/C=C/1C", "test system": "human patients, plasma", "conditions": "intravenous, 10 mg, cycle 1 day 1, weekly dosing, 1 h infusion, arithmetic mean", "half-life": "5.9 h"}
{"Compound": "COc1ncc(-c2nc3c(n2C(C)C)[C@H](c2ccc(Cl)cc2)N(c2cc(Cl)cn(C)c2=O)C3=O)c(OC)n1", "test system": "human, plasma", "conditions": "oral, 120 mg, C1D1, high-dose, median", "half-life": "12.4 h"}
{"note": "For quick reference, copied from above:"}
{"Compound": "C[C@H](Oc1ccc(Br)cc1-c1ccon1)C(=O)O", "test system": "healthy male humans, plasma", "conditions": "oral, 400 mg twice daily, day 10", "half-life": "5.1 h"}
